Assay results collected from several papers.
Numbered parts are unrelated; each lists some results of a single study. Positions count from the first letter of the parent shown.

Study 1
Target: RNA binding protein fox-1 homolog 2, RRM domain, GST-SBP tag (RBFOX2, Homo sapiens, UniProt O43251-10, residues 100-194)
Method: RNA Bind-n-Seq
Form: RNA
Medium: in vitro
Tested at: 365 nM
Notes: natural RNA segment, single round, ends assumed
Reference: no-protein control
Direction: higher = stronger binding
Quantity: RBNS enrichment (R)
Residues (chain): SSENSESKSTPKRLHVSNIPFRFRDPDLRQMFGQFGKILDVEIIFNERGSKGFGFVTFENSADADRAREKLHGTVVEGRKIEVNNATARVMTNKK
Sequence = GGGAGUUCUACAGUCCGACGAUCUGAAAUGUUUACCCCAUUGACCAAACUUGGCUCCAGCCAUUGCGGUGGUUUCUAGAUAGCCAGGCCCACCAAGAGAUAUUGCCCCUUGAUGAGAGUCAAACACCCUGCCUUGGAAUUCUCGGGUGCCAA; value = 0.38
Sequence = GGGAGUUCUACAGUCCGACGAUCUUUUAUAUCUACAUAUUUGCGGUUAGAAUCCCAUGGAUGUUUCUUCUUUGACUAUAACAAAAUCUGGGGAGGACAAAGGUGAUUUUCCUGUGUCCACAUCUAACAAAGUCUGGAAUUCUCGGGUGCCAA; value = 0.481
Sequence = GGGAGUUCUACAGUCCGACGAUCAACUGAUCUUGUGUCACUUCCAAAGAAUCAUGGGCUUUUUCGAAUAAAAAAAUUUACACUUUUCAGGUUUCGCCCUUUUUCCUGCAUGCCAUCGAAUGGAACGCUCAGGGUGGAAUUCUCGGGUGCCAA; value = 30.3
Sequence = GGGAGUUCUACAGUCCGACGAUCGCAUGAUUUUCCUUGGGAUGCAAAUCUGAAACAGUCCUUUAACAUGAACAAUCUGCAGCACACUGAAGGGCAUUCUGAAUUGAAGCUUGGAGAACUGCACUAAACCCACUUGGAAUUCUCGGGUGCCAA; value = 1.29
Sequence = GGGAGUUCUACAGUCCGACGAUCAGCUAGACCCUGUUCCCUCACCCUGUAUCCUGUCUCCCCUAAUUGACAUUCUAUCAGCCCAACCCUCAUUCUGCAGGGCCACCUGGUGUGUGGAGGUGGCGGGAGGGGUCUGGAAUUCUCGGGUGCCAA; value = 0.368
Sequence = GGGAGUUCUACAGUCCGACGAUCUUAAAAGAGGGAGGUGUGGUAUAUUAAAAUGAUUUUACUAAGAGAAAAAAAAUAUUUUUUUAAGGAUGCUCAGAAGAAAUUGAUAAUCUGUGUGAAUAUGUUUUAGAUGUUGGAAUUCUCGGGUGCCAA; value = 2.52
Sequence = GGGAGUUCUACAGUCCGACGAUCGUGUGGUGGUCGCUGGGACCCGUGCCGUGACCCCUAUUUAGCUGUGUUUUGGACUCCGUGUCUUCAGUGGUUUGUUAGUUACCAUUACGUAAACCUUGUCUGAGUAGUGUUGGAAUUCUCGGGUGCCAA; value = 0.646
Sequence = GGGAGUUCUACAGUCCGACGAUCGCUGCAGGAUAGUACAGUUUUACCGCAGAGGGAAUCUGGAACAGUGGAAUCAUGUGUCUGCCCUGUGUAUUGCAGUUUGUAUUGCCACAAGCUAUAUUUAUACCAGUGUCUGGAAUUCUCGGGUGCCAA; value = 0.72
Sequence = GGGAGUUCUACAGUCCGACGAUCUUCAGAAGAUUAGAAUUGGGUAGAUAUACUGUUGGAUAUAGCCAUGGUAAAUUUAACUGAGGAAUUAAAUCCUUGUUAAUUUUGGUGUAAAGAUUUGUAUCCUGGCCUGUUGGAAUUCUCGGGUGCCAA; value = 0.343
Sequence = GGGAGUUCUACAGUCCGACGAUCGGAAAUAUUCUCUAUGGUAAUCCUUGCCAGAGGGUCUCCAAAGGAAGCUAACCGCUGGCCCCGAAUCACGCAGCCCGUCCUUAAACGGCCUCGCCAUGUGCAUUGCCACCUGGAAUUCUCGGGUGCCAA; value = 0.185
Sequence = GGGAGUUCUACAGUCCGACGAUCCGAGAUCUGGGAACAGAAGAGUGAUGACAGACUGGAGACCCAGGUCGUUCAUCUGACCACGGGAUGUGUUUCUGAAGAAAAUCUGGAUGCCUGGUGUGUUAGGAACUGAAUGGAAUUCUCGGGUGCCAA; value = 0.488
Sequence = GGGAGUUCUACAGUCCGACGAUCAUCAGAGAAGCAUAUUUCCCUUGUGUCUCUUAAUACUGUCAUCUUGAAACUCUCUCUAGGAAAAAUGCCCAAGUUGUCUUCUGUUUCUAUUGUGGGAUGUUUAAAAAUGGUGGAAUUCUCGGGUGCCAA; value = 0.814

Study 2
Target: BATF3, bZIP domain (human)
Method: DHFR protein complementation
Medium: yeast
Notes: single substitutions, most at no-binding floor
Reference: wild-type JUN-FOS pair
Direction: higher = stronger binding
Quantity: binding fitness
Starting sequence: JUN, bZIP domain (human); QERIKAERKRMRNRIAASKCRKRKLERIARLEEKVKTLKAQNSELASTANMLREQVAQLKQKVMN; partner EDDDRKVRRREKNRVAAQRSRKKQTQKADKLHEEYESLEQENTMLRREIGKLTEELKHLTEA
Variant = L52W; value = -0.325 natural log
Variant = R30C; value = 0.227 natural log
Variant = Q55T; value = 0.0635 natural log
Variant = I28G; value = 0.373 natural log
Variant = S47V; value = 0.321 natural log
Variant = E32V; value = 0.147 natural log
Variant = A29P; value = 0.174 natural log
Variant = I28N; value = 0.177 natural log
Variant = R53M; value = 0.0473 natural log
Variant = E32A; value = 0.441 natural log
Variant = E54L; value = 0.0933 natural log
Variant = L52V; value = -0.0202 natural log
Variant = E54R; value = 0.121 natural log
Variant = A29L; value = 0.0638 natural log
Variant = L38S; value = 0.11 natural log
Variant = Q55K; value = 0.255 natural log
Variant = E33M; value = 0.237 natural log
Variant = L38N; value = -0.221 natural log
Variant = S47Y; value = 0.187 natural log
Variant = A46W; value = 0.17 natural log
Variant = L38F; value = 0.0304 natural log

Study 3
Target: Interferon regulatory factor 5, full length, phosphomimetic (IRF5, Homo sapiens, UniProt Q13568-2, residues 1-514, K96S/S451D/S453D/S456D/S462D)
Method: protein-binding microarray
Form: double-stranded DNA, one strand shown
Medium: in vitro
Tested at: 250 nM
Notes: 60-bp whole probe
With: salmon DNA 0.4 mg/ml
Reference: random background probes
Direction: higher = stronger binding
Quantity: log fluorescence
All sequences stand within: GCCTAGCAC … GTCTTGATTCGCTTGACGCTGCTG
Sequence = TCACCTTTTTTTTTTTTACTGTGCTAG; value = 1.13 z-score
Sequence = GAGGGACTGGACTATCGGGACGTGCTA; value = 0.496 z-score
Sequence = GACGGACTGGGGAGTGGGGACGTGCTA; value = -0.397 z-score
Sequence = TGCTCTCCGGGGTCTGTGAGGGTGCTA; value = -0.102 z-score
Sequence = GACTATATCAGACTGGAGACGTGCTAG; value = 0.00161 z-score
Sequence = TTAGATATCAATTTCGATTAGTGCTAG; value = 7.96 z-score
Sequence = TTTACTTTCTGAATGCCCTCGTGCTAG; value = 5.25 z-score
Sequence = ACCACTCCAGTTCTGGGAAAGTGCTAG; value = -0.292 z-score
Sequence = GTCGATTTCAGTTCCGAGACGTGCTAG; value = 2.05 z-score
Sequence = TTAGGAATGCTACTGCTTTAGTGCTAG; value = -0.572 z-score
Sequence = TTAGGTTTCGGTTCCGGTTGGTGCTAG; value = 10.3 z-score
Sequence = TCAAGCATTACTTTAGGACTGTGCTAG; value = 0.0574 z-score
Sequence = TTAGATATCAGACTCGATTAGTGCTAG; value = 0.178 z-score
Sequence = TCAATTCCTGATCTCTGACTGTGCTAG; value = 0.108 z-score
Sequence = TTACGTTTCGGGTTTCGGTTAGTGCTA; value = 10.1 z-score
Sequence = TCAATTTTTACATTATTACTGTGCTAG; value = 1.34 z-score
Sequence = GAGGGACTGGGTTTCGGGACGTGCTAG; value = 2.19 z-score
Sequence = GAAGGTATCGGTCTCGGGACGTGCTAG; value = 4.78 z-score
Sequence = TATCAGGGCATCCCCTTGAAGTGCTAG; value = 1.28 z-score
Sequence = TTAGGTTTCGGGTTTCGGTCAGTGCTA; value = 9.65 z-score
Sequence = TCAGGTATCGACTATCGGTTAGTGCTA; value = 7.78 z-score
Sequence = TGCAACATCTACAATGGCTTTGTGCTA; value = -0.272 z-score
Sequence = GCCGATTTCGGGACTGGAGACGTGCTA; value = 2.17 z-score
Sequence = CACGATATCAGTCTCGAGACGTGCTAG; value = 1.1 z-score

Study 4
Target: CCNA1, cyclin fold, Cln2 fusion (human)
Method: yeast growth competition, sequencing
Medium: yeast
Notes: weak parent motif
Reference: not given
Direction: higher = stronger binding
Quantity: normalised enrichment score
Starting sequence: CENPC docking peptide (human); VKTKKRLNFDDKV; partner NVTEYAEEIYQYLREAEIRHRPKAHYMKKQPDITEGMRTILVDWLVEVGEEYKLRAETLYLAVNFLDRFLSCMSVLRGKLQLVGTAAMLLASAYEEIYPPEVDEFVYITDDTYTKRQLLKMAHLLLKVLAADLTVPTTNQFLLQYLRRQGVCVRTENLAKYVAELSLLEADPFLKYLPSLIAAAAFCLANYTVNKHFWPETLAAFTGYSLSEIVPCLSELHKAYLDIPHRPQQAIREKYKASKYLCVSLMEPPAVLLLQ
Variant = VKTKKRLNFDDKA [V13A]; value = -0.269
Variant = VKTKKRLAFDDKV [N8A]; value = 0.372
Variant = VKTKARLNFDDKV [K5A]; value = 0.427
Variant = VKTKRRLNFDDKV [K5R]; value = 1.63
Variant = VKTKKRANFDDKV [L7A]; value = 0.232
Variant = VKTKKALNFDDKV [R6A]; value = 0.268
Variant = VKTKKRLNFADKV [D10A]; value = -0.163
Variant = VKTKKRLNFDAKV [D11A]; value = 0.439
Variant = VKTKRRLNLDDKV [K5R F9L]; value = 0.386
Variant = VKTKARANFDDKV [K5A L7A]; value = 0.163

Study 5
Target: ABI1, truncated, D143A, DHFR fusion (Arabidopsis thaliana)
Method: DHFR PCA, deep sequencing
Medium: yeast
Notes: methotrexate growth selection, single substitutions
With: (+)-ABA 0 µM
Reference: wild-type fitted maximum
Direction: higher = stronger binding
Quantity: relative binding score
Starting sequence: PYL1, truncated, DHFR fusion (Arabidopsis thaliana); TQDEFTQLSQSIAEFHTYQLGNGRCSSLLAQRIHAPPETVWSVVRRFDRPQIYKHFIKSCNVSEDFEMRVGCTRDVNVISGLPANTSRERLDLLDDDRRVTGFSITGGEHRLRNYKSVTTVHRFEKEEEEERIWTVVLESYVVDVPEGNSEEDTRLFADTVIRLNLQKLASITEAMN
Variant = A35I; value = 0.171%
Variant = S87Y; value = 46.7%
Variant = Q19M; value = 9.95%
Variant = L82Q; value = 6.68%
Variant = S27G; value = 50%
Variant = R111L; value = 0.786%
Variant = N165F; value = -5.2%
Variant = L20E; value = 30.5%
Variant = K54R; value = 16.7%
Variant = R111T; value = 3.14%
Variant = I105M; value = 5.96%
Variant = L20S; value = 34.3%
Variant = G148H; value = -2.1%
Variant = P146N; value = -3.91%
Variant = L28V; value = 48.1%

Some of these lines once more (study 2):
Variant = E33M; value = 0.237 natural log
Variant = L38S; value = 0.11 natural log
Variant = Q55K; value = 0.255 natural log
Variant = E32A; value = 0.441 natural log
Variant = E54L; value = 0.0933 natural log
